Earlier results that unrelated publications cite.
Numbers after ± are the reported error.

C[C@@H](Nc1c(-c2c(F)cc(C#CCCN)cc2F)c(Cl)nc2ncnn12)C(C)(C)C — result for “total α-tubulin level”: 0.91 ± 0.12 (HEK293; 10 µM, 4 h, unit not given; relative to: vehicle (DMSO)).
For O=C1NCCN1CC(O)Cn1c2ccc(F)cc2c2cc(F)ccc21 (centres unmarked), the EC50 was 15 µM (sample B glioblastoma stem cells; viability).
CCn1cc(-c2cc(Cn3ccnc3)cc3c2CCN([C@H](c2cc(OC)ccn2)C2CC2)C3=O)c(C(F)(F)F)n1 gave a GI50 of 0.037 ± 0.0081 µM (MOLM-13; cell proliferation).
C[C@H](Nc1c(-c2c(F)cc(OCCCN)cc2F)c(Cl)nc2ncnn12)C(F)(F)F — result for “total α-tubulin level”: 0.77 ± 0.09 (HEK293; 10 µM, 4 h, unit not given; relative to: vehicle (DMSO)).
Oc1cccc(-c2cccc(O)n2)n1.[Cl-].[Cl-].[Ru+2].c1cnc2c(c1)c1c(c3cccnc32)OCCO1.c1cnc2c(c1)c1c(c3cccnc32)OCCO1 has a phototoxicity index of 120 (MCF7; relative to: dark IC50 over light IC50).
O=C1c2ccccc2-c2c1c1ccccc1c(=O)n2C[C@H](O)[C@@H](O)[C@H](O)CO gave a mean growth of 34.9% (60 cancer cell lines; cell growth; 10 µM).
Oc1cccc(-c2cccc(O)n2)n1.[Cl-].[Cl-].[Ru+2].c1cnc2c(c1)ccc1cccnc12.c1cnc2c(c1)ccc1cccnc12 gave a phototoxicity index of 2.8 (MCF7; relative to: dark IC50 over light IC50).
O=C1c2ccccc2-c2c1c1ccccc1c(=O)n2C[C@@H](O)[C@@H](O)[C@H](O)[C@H](O)CO gave a mean growth of 69.3% (60 cancer cell lines; cell growth; 10 µM).

For quick reference, copied from above:
CCn1cc(-c2cc(Cn3ccnc3)cc3c2CCN([C@H](c2cc(OC)ccn2)C2CC2)C3=O)c(C(F)(F)F)n1 gave a GI50 of 0.037 ± 0.0081 µM (MOLM-13; cell proliferation).
